Results gathered from unrelated publications.
Lines come from different studies, so protocols differ. “And” joins repeats or separate records; there may be more than shown. Numbers after ± are the reported error.

The plasma concentration of `Cc1noc(C)c1Cn1cc(N2C(=O)CN(Cc3cccc(OS(=O)(=O)O)c3)C2=O)cn1` is reported as 3380 ng/mL (rat Sprague-Dawley male, plasma; intravenous, 1 mg/kg of parent drug, 0.08 h).
With `O=C(NS(=O)(=O)c1cccs1)c1cc2ccccc2n1Cc1ccc(Br)c2ccccc12` the plasma concentration was 106 ng/mL and 65 ng/mL (Sprague-Dawley rat, male, plasma; intravenous bolus, 2 mL/kg, 2 h).
`C=C[C@]1(C)C[C@@H](OC(=O)CSc2ccc(NC(=O)c3ccco3)cc2)[C@]2(C)[C@H](C)CC[C@]3(CCC(=O)[C@H]32)[C@@H](C)[C@@H]1O` has a plasma concentration of 4920 ng/mL and 5440 ng/mL and 4440 ng/mL and 5320 ng/mL and 4800 ng/mL and 6080 ng/mL and 5160 ng/mL and 5520 ng/mL (Mycoplasma gallisepticum-infected chickens, plasma; intramuscular, 40 mg/kg, 0.5 h).
`C[C@H](CCC(=O)NCC(=O)O)[C@H]1CC[C@H]2[C@@H]3[C@H](O)C[C@@H]4C[C@H](OS(=O)(=O)O)CC[C@]4(C)[C@H]3CC[C@]12C` has a plasma concentration of 91.8 ± 20.9 nM (healthy human volunteers, plasma; dose not given, 0 h, baseline phase, no drug).
`Cc1noc(C)c1Cn1cc(N2C(=O)CN(Cc3cccc(O[C@@H]4O[C@H](C(=O)O)[C@@H](O)[C@H](O)[C@H]4O)c3)C2=O)cn1` gave a plasma concentration of 955 ng/mL (Sprague-Dawley rat, male; oral, 10 mg/kg of parent drug, 2 h).
The plasma concentration of `Cc1nn(-c2nc3c(F)cc(F)cc3s2)c(O)c1C(c1ccc(C(F)(F)F)cc1)c1c(C)nn(-c2nc3c(F)cc(F)cc3s2)c1O` is reported as 42700 ng/mL and 31800 ng/mL and 30400 ng/mL (ICR mouse; oral, 50 mg/kg, 4.00 h).
With `CC(CCC(=O)NCC(=O)O)C1CCC2C3CCC4CC(OC5OC(C(=O)O)C(O)C(O)C5O)CCC4(C)C3CC(O)C12C` (stereo not drawn) the plasma concentration was 150 ± 53 nM (healthy human volunteers, plasma; dose not given, 0 h, control phase, probe drugs alone).
`CCC(=O)N(C)c1ccc(Cl)c(Cl)c1` gave a plasma concentration of 846 ng/mL and 866 ng/mL (LC-MS/MS; mouse C57BL/6 female, plasma; intravenous, 2 mg/kg, 0.083 h).
With `C[C@]12C[C@H](c3ccc(S(C)(=O)=O)cc3)C3=C4CCC(=O)C=C4CC[C@H]3[C@@H]1CC[C@@]2(O)C(F)(F)C(F)(F)F` the plasma concentration was 15.6 ng/mL (refers to: compound (parent); healthy human volunteers, pooled plasma; oral, 5 mg daily, day 28, 12 h).

Repeated from above:
With `O=C(NS(=O)(=O)c1cccs1)c1cc2ccccc2n1Cc1ccc(Br)c2ccccc12` the plasma concentration was 106 ng/mL and 65 ng/mL (Sprague-Dawley rat, male, plasma; intravenous bolus, 2 mL/kg, 2 h).
